Published values pooled from the literature.
A part holds a random share of what one study measured. Changes are numbered by the printed parent chain.

Study 1 — technique: protein binding microarray; form: double-stranded DNA, one strand shown; sample: in vitro; concentration: not given; baseline: not given; reading: higher = stronger binding
Target: Histone acetyltransferase KAT6A, winged helix 1, GST fusion (KAT6A, Homo sapiens, UniProt Q92794, residues 1-85)
Notes: 8-mer, flanks averaged, mean of 2 arrays, mostly near background
Construct (chain): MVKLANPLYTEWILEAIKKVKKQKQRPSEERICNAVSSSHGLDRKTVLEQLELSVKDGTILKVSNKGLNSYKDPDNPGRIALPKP
Strand | E-score
AATGTTCA | -0.151
CTTCCAAG | -0.201
CAAATTAG | -0.108
CAGCAACA | -0.229
ATTCTCAG | -0.199
GGTTGACA | -0.0182
ATTTCCCG | 0.182
CAGCAGGG | -0.0137
CCTCTCGA | -0.0519
CAGAACGA | -0.181
ACCTTCGG | 0.0144
GTCCCCAA | -0.148
GAGAAAAA | -0.089
AAGAGCAA | -0.151
ACTCGAAA | -0.184
CGGAAATA | 0.103
CCTGGGAG | -0.0658
CATCTTTC | -0.197
AGGACCCT | -0.145

Study 2 — target: CCND2, cyclin fold, Cln2 fusion (human); technique: yeast growth competition, sequencing; sample: yeast; notes: weak parent motif; baseline: not given; reading: higher = stronger binding
Starting sequence: PKMYT1 docking peptide (human); SFEPRNLLSLFED; partner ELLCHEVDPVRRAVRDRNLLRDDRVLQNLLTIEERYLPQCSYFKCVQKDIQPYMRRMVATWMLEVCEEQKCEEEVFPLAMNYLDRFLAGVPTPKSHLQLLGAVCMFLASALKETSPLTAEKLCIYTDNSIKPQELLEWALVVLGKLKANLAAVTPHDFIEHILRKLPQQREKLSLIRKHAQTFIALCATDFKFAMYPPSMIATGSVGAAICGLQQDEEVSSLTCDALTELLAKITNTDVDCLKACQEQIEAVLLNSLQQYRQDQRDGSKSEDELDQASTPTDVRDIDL
Change | normalised enrichment score
L8D | -0.35
S1E | -0.0277
E12C | 0.15
F11Q | 0.136
R5G | 0.203
L10A | -0.416
L10H | 0.163
F11L | 0.11
E3L | 0.393
N6D | -0.0619
D13E | 0.0152
L7D | 0.234
L10D | 0.216
E3N | 0.00156
F2I | -0.308
E12A | 0.0668
F2K | -0.411
F11H | 0.0464
E3F | -0.236
R5F | -0.0651
S9D | -0.0865
S9R | 0.259
L7H | 0.308
E12P | 0.16
L7G | -0.00203

Study 3 — technique: protein-binding microarray; form: double-stranded DNA, one strand shown; sample: in vitro; concentration: 0.8 µM; notes: whole 60-bp probe, no competitor; reading: higher = stronger binding; constant ends, left off below: … GTCTTGATTCGCTTGACGCTGCTG
Target: Centromere-binding protein 1, full length, N-terminal tag (CBF1, Saccharomyces cerevisiae, UniProt P17106, residues 1-351)
UniProt P17106, sequence (whole entry, looked up): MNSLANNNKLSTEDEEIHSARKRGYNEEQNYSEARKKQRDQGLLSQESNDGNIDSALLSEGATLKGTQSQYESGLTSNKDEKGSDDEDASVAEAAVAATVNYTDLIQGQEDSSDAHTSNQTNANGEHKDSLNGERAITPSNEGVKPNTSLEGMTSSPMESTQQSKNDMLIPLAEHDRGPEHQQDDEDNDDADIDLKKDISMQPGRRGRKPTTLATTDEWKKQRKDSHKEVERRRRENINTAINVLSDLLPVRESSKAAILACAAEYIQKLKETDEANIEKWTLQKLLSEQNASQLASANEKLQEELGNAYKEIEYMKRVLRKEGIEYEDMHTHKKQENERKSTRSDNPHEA
Strand | fluorescence intensity [a.u.]
GAATGGGTCCTAATGCATGTGGTGCATGGGTCCTAG | 524
CTATCGCTAGGCGGTGATGCATTTCCGCACAGGTTC | 477
CTATTGTTTTTGCACCACCTTGTTACATATAATTTC | 577
CTAAAACTCAACAGCTGCGTGATGAACGCGCTGTTC | 617
GAAATCAGCTAAAGCATCAGAAGCGAAATGGCATAG | 523
CCTAACTACTATAACCACGTGTTATAGCTTCGTACA | 5440
CCTAACTACTATAACGTGAATATATAGCTTCGTACA | 620
TGTACGAAGCTATTGCACGTAGGTATAGTAGTTAGG | 528
GAATGTCTGGTACATAAGGTGAGTCATATTTACTAG | 552
TGTACGAAGCTATCTGACCACCTTATAGTAGTTAGG | 499
GAAACAGGTAATATTGGCATGATGCGAAATTGGTAG | 544
CTAAGAGTCCGAGCATGTCTGATGAGGTCCTCTTTC | 499
CTACATTAAGGTTGTTATCTCGTGGACCACAACTTC | 649
CTAGTACGACAATGGTACATCAGGTTTAGTCTTTTC | 508
GAAGCCTGAGTTACTCTCATGATTGGGACCGAATAG | 525
GAATCCGCCGCAATTTTCGTGACGAATGTCGTTTAG | 508
GAACTGATCGTAGATCATCAGATTTGATATGATTAG | 511
GAATCAATAGTTCATGTGGTATCAGTATTTCTGTAG | 575
CTAAAGTCTACCCAGCACGCATCCTTCGTTTATTTC | 523
CTATCTAACGCAACGCACGAGGCGGCTCACTCATTC | 552
CTACACGTGATTTAATATATCCTGTTTTTTTTTTTC | 9110
GAAGGGTAGTCATTCATCGTGATGATTCATTATTAG | 522
CTATTGGGTTTACTTAGCGTGCTTTTTTTCTTCTTC | 504
GAAAAACTAAAAAAAAACGTGCTTACCTTGTGATAG | 921
GAAGAATATATACTCCACATGACATACGAAATATAG | 1130

Study 4 — technique: RNA Bind-n-Seq; form: RNA; sample: in vitro; concentration: 200 nM; notes: whole 134-nt RNA, ends assumed; with: 150 mM KCl; baseline: input library; reading: higher = stronger binding
Target: Ras GTPase-activating protein-binding protein 1, full length (G3BP1, Homo sapiens, UniProt Q13283)
UniProt Q13283, sequence (whole entry, looked up): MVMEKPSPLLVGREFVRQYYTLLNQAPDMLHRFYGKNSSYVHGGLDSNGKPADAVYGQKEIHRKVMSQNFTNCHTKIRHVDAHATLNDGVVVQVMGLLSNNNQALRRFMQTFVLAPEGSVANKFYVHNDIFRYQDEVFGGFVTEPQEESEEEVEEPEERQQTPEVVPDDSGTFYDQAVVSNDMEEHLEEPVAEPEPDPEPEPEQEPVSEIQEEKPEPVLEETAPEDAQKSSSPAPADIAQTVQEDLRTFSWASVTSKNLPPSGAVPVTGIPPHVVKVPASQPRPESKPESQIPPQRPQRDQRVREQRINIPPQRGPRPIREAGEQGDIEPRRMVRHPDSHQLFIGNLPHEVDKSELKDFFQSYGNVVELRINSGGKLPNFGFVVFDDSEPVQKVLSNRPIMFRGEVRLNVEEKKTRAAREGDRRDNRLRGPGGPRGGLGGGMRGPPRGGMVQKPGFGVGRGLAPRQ
Constant ends, left off below: GGGAGUUCUACAGUCCGACGAUC … UGGAAUUCUCGGGUGUCAAGG
Strand | log2 enrichment
AGUCCUGUGCUACACAUCGUAUGUACCGAAUCGGGUUUGGGUUUUUUUGGGAAAGGGAAAGUAUUAUGUUACGCCGUUCGGAUCUGCACU | -0.049
UCCUGUGCUACACAUCGUAUGUACCGAAUCGGGGAAAAAGGGGAGGGGAAAAAAAGGGGAAAGUAUUAUGUUACGCCGUUCGGAUCUGCA | 0.443
UGGGUUCUUAUUUCUAACUUGCAUAUGUUUUGUUUUUCAGAAGGAGUUGAGCCUUCCAAGAAGAGGCAGCUUGUAAGUAGAUGAUUAUUA | -1.4
AGUCCUGUGCUACACAUCGUAUGUACCGAAUCGGGAAAGGGUUUUUUUGGGAAAGGGAAAGUAUUAUGUUACGCCGUUCGGAUCUGCACU | -0.246
ACCAUGCAGGUGGGCAUCUUUGGGAUGUGGGGCAAGGGGGGGAUAGGGAGGGGGGUAACACUUUGGGAACAGGUGGUCCCAGGUCGUUUC | 1.09
CAAGUCCUGUGCUACACAUCGUAUGUACCGAAUCGGCCCGGGGCCCGGGCCCGGGAAAGUAUUAUGUUACGCCGUUCGGAUCUGCACUUC | -0.506
GCAGGAAGUAAAAACAAAUGGAAAUGCUUCGGAUAGUGGCAGGGGUGGGGGUUGCUAAGGAAAGGGUGGGAUGGGAGUGGGUAAAGAGUA | 0.934
GCUUUGCCUUCACUUAUUUCUUUGCUUUUUAAAAACUAUUUGUAAUGUAAUUUUAAUGCAUUUUUUACAGGCCCAGUAAUGGUUAAAUAC | -0.665
AAGAUUUAGAGAUGAAUUAAAUUUAAUUAGGGGUUGCUAAGAAGCGAGCACUGACCAGAUAAGAAUGCUGGUUUUCCUAAAUGCAGUGAA | -0.523
UAACUUUAGAGGAGGAUCUGAUGGAUAUGGCAGUGGACGUGGAUUUGGGGAUGGCUAUAAUGGGUAUGGAGGAGGACCUGUAGGUGGCAA | 0.054
GGGUGGACACUGACGAGCUGGACAGCAACGUGGACGACUGGGAAGAGGAGACCAUUGAGUUCUUCGUCACUGAAGAAAUCAUUCCCCUCG | -0.917
AGUCCUGUGCUACACAUCGUAUGUACCGAAUCGGGAGGGUUUUUUUGGGAAAAAGGGAAAGUAUUAUGUUACGCCGUUCGGAUCUGCACU | -0.263
CCUCAAGUCCUGUGCUACACAUCGUAUGUACCGAAUCGGGAAGGAAGGGAAGGAAAGUAUUAUGUUACGCCGUUCGGAUCUGCACUUCCA | -0.384
CUGUGCUACACAUCGUAUGUACCGAAUCGGGGAAAGGGGUUUUUUUGGGGUUUUUUUGGGGAAAGUAUUAUGUUACGCCGUUCGGAUCUG | -0.185

Study 5 — target: CREBRF, bZIP domain (human); technique: DHFR protein complementation; sample: yeast; baseline: wild-type JUN-FOS pair; reading: higher = stronger binding
Notes: single substitutions, most at no-binding floor
Starting sequence: JUN, bZIP domain (human); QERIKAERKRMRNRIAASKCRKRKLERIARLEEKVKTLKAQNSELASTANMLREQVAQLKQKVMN; partner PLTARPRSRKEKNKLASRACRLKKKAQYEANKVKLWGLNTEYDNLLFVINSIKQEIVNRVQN
Change | binding fitness [natural log]
R30L | -1.54
E44C | -1.55
L31R | -1.5
T37K | -1.3
S47Q | -1.2
R53V | -1.56
A29Q | -1.47
R30P | -1.33
R30Y | -1.43
R30D | -1.16
A29D | -1.18
K36H | -1.5
N42I | -1.49
A46E | -1.22
K39A | -1.51
K34S | -1.57
S47T | -1.31
R53G | -1.47
L31T | -1.51
R30N | -1.47
A29P | -1.49
A57G | -1.52

Some of these lines once more (study 3):
Strand | fluorescence intensity [a.u.]
CTATTGGGTTTACTTAGCGTGCTTTTTTTCTTCTTC | 504
TGTACGAAGCTATCTGACCACCTTATAGTAGTTAGG | 499
TGTACGAAGCTATTGCACGTAGGTATAGTAGTTAGG | 528
CTAAAACTCAACAGCTGCGTGATGAACGCGCTGTTC | 617
CTATTGTTTTTGCACCACCTTGTTACATATAATTTC | 577
CTAGTACGACAATGGTACATCAGGTTTAGTCTTTTC | 508
CTATCGCTAGGCGGTGATGCATTTCCGCACAGGTTC | 477
GAACTGATCGTAGATCATCAGATTTGATATGATTAG | 511
GAAACAGGTAATATTGGCATGATGCGAAATTGGTAG | 544
CCTAACTACTATAACCACGTGTTATAGCTTCGTACA | 5440
GAATGTCTGGTACATAAGGTGAGTCATATTTACTAG | 552
CTAAGAGTCCGAGCATGTCTGATGAGGTCCTCTTTC | 499
CTACATTAAGGTTGTTATCTCGTGGACCACAACTTC | 649
GAATGGGTCCTAATGCATGTGGTGCATGGGTCCTAG | 524
GAAAAACTAAAAAAAAACGTGCTTACCTTGTGATAG | 921
CTACACGTGATTTAATATATCCTGTTTTTTTTTTTC | 9110
CCTAACTACTATAACGTGAATATATAGCTTCGTACA | 620
